Measurements from different studies.
Parts stem from different laboratories: compare values within a part only.
Chain of UniProt Q8IVW4 (whole entry, looked up): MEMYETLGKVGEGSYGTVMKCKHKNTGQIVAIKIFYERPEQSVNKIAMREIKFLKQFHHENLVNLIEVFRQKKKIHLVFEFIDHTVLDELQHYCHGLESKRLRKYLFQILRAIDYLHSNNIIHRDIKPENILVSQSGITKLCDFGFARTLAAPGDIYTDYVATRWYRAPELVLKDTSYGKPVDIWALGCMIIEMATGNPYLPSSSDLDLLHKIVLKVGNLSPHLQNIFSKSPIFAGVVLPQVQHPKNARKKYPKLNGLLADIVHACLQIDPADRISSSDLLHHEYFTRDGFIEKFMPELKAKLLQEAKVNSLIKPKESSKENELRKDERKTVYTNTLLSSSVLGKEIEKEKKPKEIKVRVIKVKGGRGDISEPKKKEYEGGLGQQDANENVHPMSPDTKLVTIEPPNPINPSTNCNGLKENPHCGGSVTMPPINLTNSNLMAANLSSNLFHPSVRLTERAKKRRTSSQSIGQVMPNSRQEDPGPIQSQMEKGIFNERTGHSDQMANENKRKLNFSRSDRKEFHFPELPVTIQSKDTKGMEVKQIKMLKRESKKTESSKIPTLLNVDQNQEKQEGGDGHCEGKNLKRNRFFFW
Chain of UniProt Q9UK32 (whole entry, looked up): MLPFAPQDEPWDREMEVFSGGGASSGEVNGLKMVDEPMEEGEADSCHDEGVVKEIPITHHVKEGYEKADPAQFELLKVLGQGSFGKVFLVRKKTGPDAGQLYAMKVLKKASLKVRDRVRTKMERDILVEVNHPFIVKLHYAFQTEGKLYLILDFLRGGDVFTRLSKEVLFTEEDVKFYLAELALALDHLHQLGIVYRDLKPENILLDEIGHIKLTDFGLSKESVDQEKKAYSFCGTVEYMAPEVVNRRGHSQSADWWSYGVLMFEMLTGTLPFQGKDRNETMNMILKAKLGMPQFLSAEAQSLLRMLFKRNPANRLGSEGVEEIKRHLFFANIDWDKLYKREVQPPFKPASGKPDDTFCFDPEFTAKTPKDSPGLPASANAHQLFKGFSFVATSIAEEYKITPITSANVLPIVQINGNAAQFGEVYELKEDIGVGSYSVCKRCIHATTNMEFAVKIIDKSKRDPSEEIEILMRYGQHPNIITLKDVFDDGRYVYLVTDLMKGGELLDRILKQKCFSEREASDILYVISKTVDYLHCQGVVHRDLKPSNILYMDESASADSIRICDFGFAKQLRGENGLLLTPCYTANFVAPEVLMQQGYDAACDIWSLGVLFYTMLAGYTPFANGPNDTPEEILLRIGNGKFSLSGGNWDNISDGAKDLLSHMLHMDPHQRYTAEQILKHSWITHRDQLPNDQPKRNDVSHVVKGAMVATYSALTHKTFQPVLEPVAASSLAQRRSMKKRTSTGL
Chain of UniProt P19525 (whole entry, looked up): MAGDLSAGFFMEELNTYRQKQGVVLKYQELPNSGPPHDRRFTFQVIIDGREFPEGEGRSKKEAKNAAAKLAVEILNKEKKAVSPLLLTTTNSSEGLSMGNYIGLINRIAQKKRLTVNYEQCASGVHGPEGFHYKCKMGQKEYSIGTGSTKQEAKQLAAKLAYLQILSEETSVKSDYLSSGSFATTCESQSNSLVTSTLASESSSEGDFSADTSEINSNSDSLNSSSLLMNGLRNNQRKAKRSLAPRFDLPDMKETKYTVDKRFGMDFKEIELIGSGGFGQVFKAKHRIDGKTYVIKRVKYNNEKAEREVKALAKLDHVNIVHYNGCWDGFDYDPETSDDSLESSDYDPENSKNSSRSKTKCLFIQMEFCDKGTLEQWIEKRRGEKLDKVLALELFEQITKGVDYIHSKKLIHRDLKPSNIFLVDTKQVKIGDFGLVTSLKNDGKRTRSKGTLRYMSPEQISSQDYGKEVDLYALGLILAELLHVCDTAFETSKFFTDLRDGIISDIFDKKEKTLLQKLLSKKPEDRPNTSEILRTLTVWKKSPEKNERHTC
Chain of UniProt P42338 (whole entry, looked up): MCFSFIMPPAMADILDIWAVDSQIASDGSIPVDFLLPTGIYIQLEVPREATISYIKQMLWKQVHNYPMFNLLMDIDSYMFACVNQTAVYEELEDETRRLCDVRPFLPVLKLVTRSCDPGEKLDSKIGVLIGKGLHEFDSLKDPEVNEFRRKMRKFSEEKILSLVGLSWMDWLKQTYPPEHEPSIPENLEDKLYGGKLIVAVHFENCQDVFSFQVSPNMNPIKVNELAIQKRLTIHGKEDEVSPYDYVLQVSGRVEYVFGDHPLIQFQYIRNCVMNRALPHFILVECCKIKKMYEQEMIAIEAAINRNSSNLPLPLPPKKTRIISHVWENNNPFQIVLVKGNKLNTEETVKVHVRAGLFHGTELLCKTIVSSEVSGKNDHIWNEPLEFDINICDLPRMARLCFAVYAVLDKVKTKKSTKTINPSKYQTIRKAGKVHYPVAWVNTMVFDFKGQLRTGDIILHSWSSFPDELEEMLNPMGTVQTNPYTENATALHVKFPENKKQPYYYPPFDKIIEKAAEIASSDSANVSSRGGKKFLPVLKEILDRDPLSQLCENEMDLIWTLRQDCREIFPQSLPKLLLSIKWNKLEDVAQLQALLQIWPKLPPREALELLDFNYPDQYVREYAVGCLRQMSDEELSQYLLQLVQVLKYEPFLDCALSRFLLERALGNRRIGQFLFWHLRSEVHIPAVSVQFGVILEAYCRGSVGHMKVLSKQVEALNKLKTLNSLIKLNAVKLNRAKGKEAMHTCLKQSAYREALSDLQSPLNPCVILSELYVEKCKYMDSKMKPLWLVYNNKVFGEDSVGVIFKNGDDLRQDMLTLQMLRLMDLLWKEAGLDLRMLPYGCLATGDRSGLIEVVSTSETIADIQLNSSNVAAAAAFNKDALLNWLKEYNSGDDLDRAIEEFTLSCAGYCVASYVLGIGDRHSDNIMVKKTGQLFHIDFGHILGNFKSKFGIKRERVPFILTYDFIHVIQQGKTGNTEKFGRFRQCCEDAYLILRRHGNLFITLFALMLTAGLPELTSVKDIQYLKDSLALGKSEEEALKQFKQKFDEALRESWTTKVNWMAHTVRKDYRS
Chain of UniProt Q16288 (whole entry, looked up): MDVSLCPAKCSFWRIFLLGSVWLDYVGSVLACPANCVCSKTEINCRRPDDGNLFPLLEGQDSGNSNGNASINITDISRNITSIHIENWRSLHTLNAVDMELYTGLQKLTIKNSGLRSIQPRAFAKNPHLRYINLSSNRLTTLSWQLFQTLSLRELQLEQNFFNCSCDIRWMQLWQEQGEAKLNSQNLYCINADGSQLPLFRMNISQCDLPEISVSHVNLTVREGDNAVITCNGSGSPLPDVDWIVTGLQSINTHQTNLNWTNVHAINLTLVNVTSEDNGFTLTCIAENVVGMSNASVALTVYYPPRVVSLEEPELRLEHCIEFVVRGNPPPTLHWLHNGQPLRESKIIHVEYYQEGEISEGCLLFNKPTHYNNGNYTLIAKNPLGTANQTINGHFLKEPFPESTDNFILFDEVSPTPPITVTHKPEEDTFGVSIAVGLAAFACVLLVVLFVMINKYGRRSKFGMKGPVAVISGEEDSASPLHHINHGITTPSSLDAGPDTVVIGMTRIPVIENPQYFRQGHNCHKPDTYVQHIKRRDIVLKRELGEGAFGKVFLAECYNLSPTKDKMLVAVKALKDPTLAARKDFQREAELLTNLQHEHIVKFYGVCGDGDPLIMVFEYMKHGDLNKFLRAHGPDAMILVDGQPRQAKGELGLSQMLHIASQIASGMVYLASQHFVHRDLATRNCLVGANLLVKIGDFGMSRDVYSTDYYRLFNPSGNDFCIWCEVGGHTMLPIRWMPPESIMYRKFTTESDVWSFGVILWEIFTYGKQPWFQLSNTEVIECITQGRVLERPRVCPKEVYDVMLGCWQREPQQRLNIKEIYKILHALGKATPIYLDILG

Study 1
Target: Calcium/calmodulin-dependent protein kinase type II subunit alpha (CAMK2A, Homo sapiens, UniProt Q9UQM7)
Chain of UniProt Q9UQM7 (whole entry, looked up): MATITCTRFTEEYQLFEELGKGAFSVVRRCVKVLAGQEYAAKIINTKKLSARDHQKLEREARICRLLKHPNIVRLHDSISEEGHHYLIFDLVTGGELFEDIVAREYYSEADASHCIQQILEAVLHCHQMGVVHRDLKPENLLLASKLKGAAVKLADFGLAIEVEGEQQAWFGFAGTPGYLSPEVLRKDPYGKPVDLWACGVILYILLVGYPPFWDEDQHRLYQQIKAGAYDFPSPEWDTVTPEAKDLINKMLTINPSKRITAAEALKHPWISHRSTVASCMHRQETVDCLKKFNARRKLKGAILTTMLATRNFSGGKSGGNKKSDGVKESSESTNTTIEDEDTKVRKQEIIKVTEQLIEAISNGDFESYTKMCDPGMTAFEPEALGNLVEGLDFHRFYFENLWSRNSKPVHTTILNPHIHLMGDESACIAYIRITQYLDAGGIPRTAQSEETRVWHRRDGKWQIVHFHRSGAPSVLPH
Read-out: enzyme activity
Action: inhibitor
Concentration: 10 µM
| Structure (SMILES) | inhibition |
| --- | --- |
| COc1cc2oc(-c3ccc(O)c(O)c3)cc(=O)c2c(O)c1OC | 14% |
| Cc1cccc(N(C)C(=S)Oc2ccc3ccccc3c2)c1 | -9% |
| C[C@@H]1O[C@@H](O[C@H]2[C@H](OC(=O)[C@]34CCC(C)(C)C[C@H]3C3=CC[C@@H]5[C@@]6(C)C[C@H](O)[C@H](O[C@@H]7O[C@H](CO)[C@@H](O)[C@H](O)[C@H]7O)C(CO)(CO)[C@@H]6CC[C@@]5(C)[C@]3(C)C[C@H]4O)OC[C@H](O)[C@@H]2O)[C@H](O)[C@H](O)[C@H]1O[C@@H]1OC[C@@H](O)[C@H](O)[C@H]1O | -35% |
| O=c1cc(-c2ccccc2)oc2c1ccc1ccccc12 | 13% |
| COc1ccc2c(c1)OC[C@@H](c1cc(O)c(OC)c(OC)c1O)C2 | 17% |
| CC(CCc1ccc(O)cc1)NCCc1ccc(O)c(O)c1 (stereo not drawn) | 4% |

Study 2
SMILES: COc1ccc2[nH]c3c4[nH]c5ccc(OC)cc5c4c4c(c3c2c1)C(=O)NC4=O
Concentration: 1 µM
| target | assay | conditions | scale | remaining binding |
| --- | --- | --- | --- | --- |
| Non-receptor tyrosine-protein kinase TNK1 (TNK1, Homo sapiens, UniProt Q13470) | competitive binding panel |  | reference: vehicle | 29% |
| Cyclin-dependent kinase 11B (CDK11B, Homo sapiens, UniProt P21127) | competitive binding panel, item: CDC2L1 |  | reference: vehicle | 90% |
| Interferon-induced, double-stranded RNA-activated protein kinase (EIF2AK2, Homo sapiens, UniProt P19525) | competitive binding | PRKR |  | 100% |
| Phosphatidylinositol 4,5-bisphosphate 3-kinase catalytic subunit beta isoform (PIK3CB, Homo sapiens, UniProt P42338) | competitive binding panel |  | reference: vehicle | 88% |
| Serine/threonine-protein kinase MRCK alpha (CDC42BPA, Homo sapiens, UniProt Q5VT25) | competitive binding | MRCKA |  | 76% |
| Cyclin-dependent kinase-like 3 (CDKL3, Homo sapiens, UniProt Q8IVW4) | competitive binding panel |  | reference: vehicle | 91% |
| TRAF2 and NCK-interacting protein kinase (TNIK, Homo sapiens, UniProt Q9UKE5) | competitive binding panel |  | reference: vehicle | 3% |

Study 3
Compound: CCc1ccccc1C(=O)Nc1n[nH]c2c(C)c(F)c(C3C(C#N)=C(C)N(C)C(C)=C3C#N)cc12
Concentration: 1 µM
| target | assay | remaining binding [%] |
| --- | --- | --- |
| Phosphatidylinositol 4,5-bisphosphate 3-kinase catalytic subunit alpha isoform (PIK3CA, Homo sapiens, UniProt P42336, M1043I) | cell-free assay, competition with immobilised ligand | 75 |
| NT-3 growth factor receptor (NTRK3, Homo sapiens, UniProt Q16288) | cell-free assay, competition with immobilised ligand | 100 |
| Tyrosine-protein kinase ABL1, non-phosphorylated (ABL1, Homo sapiens, UniProt P00519, F317I) | binding, competition with immobilised ligand | 100 |
| Serine/threonine-protein kinase Chk2 (CHEK2, Homo sapiens, UniProt O96017) | cell-free assay, competition with immobilised ligand | 70 |
| Serine/threonine-protein kinase MRCK gamma (CDC42BPG, Homo sapiens, UniProt Q6DT37) | competition binding | 93 |
| Serine/threonine-protein kinase MARK1 (MARK1, Homo sapiens, UniProt Q9P0L2) | cell-free assay, competition with immobilised ligand | 36 |
| Mitogen-activated protein kinase kinase kinase 20 (MAP3K20, Homo sapiens, UniProt Q9NYL2) | cell-free assay, competition with immobilised ligand | 90 |
| Mast/stem cell growth factor receptor Kit, autoinhibited (KIT, Homo sapiens, UniProt P10721) | cell-free assay, competition with immobilised ligand | 100 |
| Ribosomal protein S6 kinase alpha-6, N-terminal kinase domain (RPS6KA6, Homo sapiens, UniProt Q9UK32) | cell-free assay, competition with immobilised ligand | 2.9 |
| Insulin receptor (INSR, Homo sapiens, UniProt P06213) | cell-free assay, competition with immobilised ligand | 100 |
| Calcium/calmodulin-dependent protein kinase type 1G (CAMK1G, Homo sapiens, UniProt Q96NX5) | cell-free assay, competition with immobilised ligand | 90 |

Study 4
Target: Calcium/calmodulin-dependent protein kinase type II subunit delta (CAMK2D, Homo sapiens, UniProt Q13557)
Chain of UniProt Q13557 (whole entry, looked up): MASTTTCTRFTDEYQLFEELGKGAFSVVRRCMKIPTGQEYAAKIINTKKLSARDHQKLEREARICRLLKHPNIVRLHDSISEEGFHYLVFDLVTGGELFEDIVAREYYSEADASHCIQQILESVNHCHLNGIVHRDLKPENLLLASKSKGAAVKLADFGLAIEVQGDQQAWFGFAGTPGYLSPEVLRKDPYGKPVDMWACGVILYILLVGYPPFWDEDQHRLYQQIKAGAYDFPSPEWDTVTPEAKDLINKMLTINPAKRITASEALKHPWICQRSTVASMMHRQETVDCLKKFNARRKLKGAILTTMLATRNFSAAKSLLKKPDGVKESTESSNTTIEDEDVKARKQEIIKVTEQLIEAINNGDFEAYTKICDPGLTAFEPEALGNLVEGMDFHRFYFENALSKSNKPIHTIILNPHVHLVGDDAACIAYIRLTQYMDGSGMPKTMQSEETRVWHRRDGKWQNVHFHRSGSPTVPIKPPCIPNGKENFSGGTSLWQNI
Read-out: enzyme activity
Action: inhibitor
Concentration: 0.5 µM
Reference: control
| Compound | remaining activity [%] |
| --- | --- |
| CO[C@H]1C[C@@H]2CC[C@@H](C)[C@@](O)(O2)C(=O)C(=O)N2CCCC[C@H]2C(=O)O[C@H]([C@H](C)C[C@@H]2CC[C@@H](O)[C@H](OC)C2)CC(=O)[C@H](C)/C=C(\C)[C@@H](O)[C@@H](OC)C(=O)[C@H](C)C[C@H](C)/C=C/C=C/C=C/1C | 96.1 |
| COc1cc2ncnc(Nc3ccc(F)c(Cl)c3)c2cc1OCCCN1CCOCC1 | 92.4 |
| O=C1NC(=O)C(c2cn(CCCO)c3ncccc23)=C1c1cnccn1 | 101 |
| O=S(=O)(c1cccc2cnccc12)N1CCCNCC1 | 98.5 |
| COc1ccc(OC)c2c(=S)c3ccccc3[nH]c12 | 89.8 |
| CCOC(=O)c1c(C)[nH]c(/C=C2\C(=O)Nc3ccccc32)c1C | 93.9 |
| N#CC(C#N)=C(N)/C(C#N)=C/c1ccc(O)cc1 | 91.1 |
| Nc1ncnc2n[nH]c(Nc3ccc(F)cc3)c12 | 92.5 |
| O=C(O)c1ccc2c3c1cccc3c(=O)n1c3ccccc3nc21 | 93.6 |
| OCC(O)CCON=C1C(c2c(O)[nH]c3ccccc23)=Nc2ccccc21 (stereo not drawn) | 29.1 |
| NCCNc1ncc(C(N)=O)c(Nc2cccc(C(F)(F)F)c2)n1 | 92.5 |
| O=C(CCCc1ccc(-c2ccccc2F)cc1)Nc1ccc(O)cc1 | 108 |
| Cc1ccc(NC(=O)c2ccc(CN3CCN(C)CC3)cc2)cc1Nc1nc(-c2cccnc2)cs1 | 106 |
| Nc1[nH]nc2nc3ccccc3nc12 | 89.4 |
| Cn1sc(=O)n(Cc2ccccc2)c1=O | 98.9 |

Some of these lines once more (study 3):
| target | assay | remaining binding [%] |
| --- | --- | --- |
| NT-3 growth factor receptor (NTRK3, Homo sapiens, UniProt Q16288) | cell-free assay, competition with immobilised ligand | 100 |
| Tyrosine-protein kinase ABL1, non-phosphorylated (ABL1, Homo sapiens, UniProt P00519, F317I) | binding, competition with immobilised ligand | 100 |
| Mitogen-activated protein kinase kinase kinase 20 (MAP3K20, Homo sapiens, UniProt Q9NYL2) | cell-free assay, competition with immobilised ligand | 90 |
